Measured values collected from several papers.
Compare with care: the assays were run in different laboratories.
Organism: Enterobacter cloacae

SMILES | assay | test system | setting | MIC
CC(C)CS[C@H]1[C@H](O)[C@@H](N)[C@@H](O[C@H]2[C@H](O[C@@H]3O[C@H](CO)[C@@H](O[C@H]4O[C@@H](CN)[C@@H](O)[C@H](O)[C@H]4N)[C@H]3O)[C@@H](O)[C@H](N)C[C@@H]2N)O[C@@H]1CO |  | AG290 |  | 2 µg/mL
CN1/C(=C/C=C/c2cc(-c3ccccc3)cc(-c3ccccc3)[o+]2)C(C)(C)c2ccccc21 | microbial growth, broth dilution | ATCC13047 |  | 32 µg/mL
NC[C@@H]1O[C@H](O[C@H]2[C@@H](O)[C@H](O[C@@H]3[C@@H](O)[C@H](N)C[C@H](N)[C@H]3O[C@H]3O[C@H](CO)[C@@H](CCO)[C@H](O)[C@H]3N)O[C@@H]2CO)[C@H](N)[C@@H](O)[C@@H]1O |  | AG290 |  | 1 to 2 µg/mL
COc1c(NC(=O)c2ccc(NC(=O)c3ccc(NC(=O)[C@H](CC#N)NC(=O)c4ccc(NC(=O)/C(C)=C/c5ccc(O)cc5)cc4)cc3)c(OC)c2O)ccc(C(=O)O)c1O | microbial growth | DSM30054 |  | > 64 µg/mL
CC(C)C[C@H](NC(=O)[C@H](CC(N)=O)NC(=O)[C@H](CCCNC(=N)N)NC(=O)[C@@H](CC(C)C)NC(=O)[C@H](Cc1ccccc1)NC(=O)[C@H](CC(=O)O)NC(=O)[C@H](CCCCN)NC(=O)[C@@H](CC(C)C)NC(=O)[C@H](CCCNC(=N)N)NC(=O)[C@H](CCC(N)=O)NC(=O)[C@@H](NC(=O)[C@@H](CC(C)C)NC(=O)[C@H](CCCNC(=N)N)NC(=O)[C@H](CCCCN)NC(=O)[C@H](Cc1ccc(-c2ccccc2)cc1)NC(=O)CN)C(C)C)C(=O)N[C@H](C(N)=O)C(C)C | broth microdilution | B2366-12 |  | 12.5 µM
c1ccc(CN2CCOCCOCCN(CCCCCCCCCCCCCCN3CCOCCOCCN(CCCCCCCCCCCCCCN4CCOCCOCCN(Cc5ccccc5)CCOCCOCC4)CCOCCOCC3)CCOCCOCC2)cc1 |  | meropenem-resistant |  | 12 µM
CC(C)C[C@H](NC(=O)[C@H](CC(N)=O)NC(=O)[C@H](CCCNC(=N)N)NC(=O)[C@@H](CC(C)C)NC(=O)[C@H](Cc1ccc2ccccc2c1)NC(=O)[C@H](CC(=O)O)NC(=O)[C@H](CCCCN)NC(=O)[C@@H](CC(C)C)NC(=O)[C@H](CCCNC(=N)N)NC(=O)[C@H](CCC(N)=O)NC(=O)[C@@H](NC(=O)[C@@H](CC(C)C)NC(=O)[C@H](CCCNC(=N)N)NC(=O)[C@H](CCCCN)NC(=O)[C@H](Cc1ccc(C(F)(F)F)cc1)NC(=O)CN)C(C)C)C(=O)N[C@H](C(N)=O)C(C)C | broth microdilution | B2366-12 |  | 6.2 µM
CN1CCC(NCCC2(Cc3ccc(Cl)cc3)CCCCC2)CC1 | microbial growth |  | 10 h | 200 µM
c1ccc(CN2CCOCCOCCN(CCCCCCCCCCN3CCOCCOCCN(CCCCCCCCCCN4CCOCCOCCN(Cc5ccccc5)CCOCCOCC4)CCOCCOCC3)CCOCCOCC2)cc1 | microbial growth |  |  | 26 µM
CC(C)C[C@H](NC(=O)[C@H](CC(N)=O)NC(=O)[C@H](CCCNC(=N)N)NC(=O)[C@@H](CC(C)C)NC(=O)[C@H](Cc1ccc(C(F)(F)F)cc1)NC(=O)[C@H](CC(=O)O)NC(=O)[C@H](CCCCN)NC(=O)[C@@H](CC(C)C)NC(=O)[C@H](CCCNC(=N)N)NC(=O)[C@H](CCC(N)=O)NC(=O)[C@@H](NC(=O)[C@@H](CC(C)C)NC(=O)[C@H](CCCNC(=N)N)NC(=O)[C@H](CCCCN)NC(=O)[C@H](Cc1ccc2ccccc2c1)NC(=O)CN)C(C)C)C(=O)N[C@H](C(N)=O)C(C)C | broth microdilution | B2366-12 |  | 6.2 to 12.5 µM
NC[C@@H]1O[C@H](O[C@H]2[C@@H](O)[C@H](O[C@@H]3[C@@H](O)[C@H](N)C[C@H](N)[C@H]3O[C@H]3O[C@H](CO)[C@@H](SCCF)[C@H](O)[C@H]3N)O[C@@H]2CO)[C@H](N)[C@@H](O)[C@@H]1O |  | AG290 |  | 4 µg/mL
CC[P+](CC)(CC)[Au-][S]c1ccc(SCC(=O)N[C@H]2[C@H](OC(C)=O)O[C@H](COC(C)=O)[C@@H](OC(C)=O)[C@@H]2OC(C)=O)cc1 |  | NCTC 13405 |  | 152 µM

Some of these lines once more:
SMILES | assay | test system | setting | MIC
CN1/C(=C/C=C/c2cc(-c3ccccc3)cc(-c3ccccc3)[o+]2)C(C)(C)c2ccccc21 | microbial growth, broth dilution | ATCC13047 |  | 32 µg/mL
COc1c(NC(=O)c2ccc(NC(=O)c3ccc(NC(=O)[C@H](CC#N)NC(=O)c4ccc(NC(=O)/C(C)=C/c5ccc(O)cc5)cc4)cc3)c(OC)c2O)ccc(C(=O)O)c1O | microbial growth | DSM30054 |  | > 64 µg/mL
